# Values quoted from earlier work that unrelated publications cite.
# Lines come from different studies, so protocols differ. ± marks the error that the study gave.
Compound,tested on,test,system,setting,scale,measurement,result
Nc1nc2c(nc(Br)n2[C@@H]2O[C@@H]3COP(=O)(O)O[C@H]3[C@H]2O)c(=O)[nH]1,PDE2A,"cyclic nucleotide hydrolysis, substrate or inhibitor, isothermal titration calorimetry",,,,Km or Ki,90900 nM
O=C1c2ccccc2-c2c1c1ccc([N+](=O)[O-])cc1c(=O)n2CCCn1ccnc1,prostate DU-145,cell growth,,,,GI50,17 nM
CC[C@H](C)CCCCC(=O)N[C@@H](CCN)C(=O)N[C@H](C(=O)N[C@@H](CCN)C(=O)N[C@H]1CCNC(=O)[C@H]([C@@H](C)O)NC(=O)[C@H](CCN)NC(=O)[C@H](CCN)NC(=O)[C@H](CC(C)C)NC(=O)[C@@H](Cc2ccccc2)NC(=O)[C@H](CCN)NC1=O)[C@@H](C)O,,,human patients,"intravenous, dose not given, two-compartment population PK model",,peripheral volume of distribution,22.3 L
Nc1nc2c(ncn2[C@@H]2O[C@@H]3COP(=O)(O)O[C@H]3[C@H]2O)c(=O)[nH]1,PDE2A,"cyclic nucleotide hydrolysis, substrate or inhibitor, isothermal titration calorimetry",,,,Km or Ki,31000 nM
O=C(O)CNC(=O)c1ccccc1[131I],,,"normal rat, heart","10 min, with: co-injected 99mTc-1",,percent injected dose,0.2 ± 0.1 %ID
O=C1c2ccccc2-c2c1c1ccc([N+](=O)[O-])cc1c(=O)n2C[C@H](O)CO,CNS SF-539,cell growth,,,,GI50,157 nM
CC(C)(C)c1nc(-c2cccc(NS(=O)(=O)c3c(F)cccc3F)c2F)c(-c2ccnc(N)n2)s1,hiPSC-derived cardiomyocytes,,,"72 h, tested 0 to 100 µM",,beating cessation concentration,100 µM
O=C1c2cccc3c2[C@H](CCC3)CN1[C@@H]1CN2CCC1CC2,,,healthy volunteers,"oral, 0.75 mg single dose, mean, with: netupitant 450 mg",,Tmax,4.69 h
CNC(=O)c1cc(Oc2ccc(NC(=O)Nc3ccc(Cl)c(C(F)(F)F)c3)cc2)ccn1,hiPSC-derived cardiomyocytes,contractility,,"concentration not given, 72 h, at effective concentration",relative to: baseline,log2 fold change,1.03
O=C1c2ccccc2-c2c1c1ccc([N+](=O)[O-])cc1c(=O)n2CCCN1CCOCC1,melanoma UACC-62,cell growth,,,,GI50,380 nM
COc1cccc2c1C(=O)c1c(O)c3c(c(O)c1C2=O)C[C@@](O)(C(=O)CO)C[C@@H]3O[C@H]1C[C@H](N)[C@H](O)[C@H](C)O1,hiPSC-derived cardiomyocytes,contractility,,72 h,,lowest effective concentration,1.2 µM
Cc1ccccc1-c1cc(N2CCN(C)CC2)ncc1N(C)C(=O)C(C)(C)c1cc(C(F)(F)F)cc(C(F)(F)F)c1,,,"healthy volunteers, plasma","oral, 450 mg, single dose, given alone",,Tmax,5.98 h

# Repeated from above:
Compound,tested on,test,system,setting,scale,measurement,result
CC[C@H](C)CCCCC(=O)N[C@@H](CCN)C(=O)N[C@H](C(=O)N[C@@H](CCN)C(=O)N[C@H]1CCNC(=O)[C@H]([C@@H](C)O)NC(=O)[C@H](CCN)NC(=O)[C@H](CCN)NC(=O)[C@H](CC(C)C)NC(=O)[C@@H](Cc2ccccc2)NC(=O)[C@H](CCN)NC1=O)[C@@H](C)O,,,human patients,"intravenous, dose not given, two-compartment population PK model",,peripheral volume of distribution,22.3 L
Cc1ccccc1-c1cc(N2CCN(C)CC2)ncc1N(C)C(=O)C(C)(C)c1cc(C(F)(F)F)cc(C(F)(F)F)c1,,,"healthy volunteers, plasma","oral, 450 mg, single dose, given alone",,Tmax,5.98 h
